Results pooled from the literature.
Lines come from different studies, so protocols differ.

SMILES | test | test system | conditions | scale | measurement | result
N#Cc1cccc(-c2ccc3ncc(-c4cc(F)cc(F)c4)c(N4CCC(N)CC4)c3c2)c1O | – | human, male, urine and faeces | oral, 20 mg, 48 h, single dose, mean | relative to: dose | total radioactivity recovered | 44.1%
N#Cc1ccc2c(c1)[C@H]1CCCN(C(=O)c3ccc4[nH]cnc4c3)[C@H]1C2 | – | human males | 40 mg, day 15 | – | total testosterone level | 14.6 nmol/L
C=CC(=O)N(C)CCOc1c(N)ncnc1-c1cc(F)cc(NC(=O)c2ccc(C3CC3)cc2F)c1C | – | human, whole blood | intravenous, 100 µg, uninhibited microdose | – | total clearance | 1200 mL/min
C[C@@H](Oc1ccc(S(C)(=O)=O)cc1C(=O)N1C[C@@H]2C[C@]2(c2cc(C(F)(F)F)on2)C1)C(F)(F)F | item: 14C radioactivity | human, urine and faeces | oral, 25 mg, 0 to 677 h, geometric mean | relative to: dose | total recovery | 96.7%
Cc1onc(-c2ccccc2Cl)c1C(=O)N[C@@H]1C(=O)N2[C@@H]1SC(C)(C)[C@@H]2C(=O)O | LC-MS/MS | human patients, plasma | dose not given, therapeutic drug monitoring, median | – | total plasma concentration | 10 mg/L
O=C(/C=C/c1cccc(S(=O)(=O)Nc2ccccc2)c1)NO | – | human, plasma | 2000 mg/m^2, cycle 1 day 1, mean | – | total clearance | 27.1 L/h/m²
COc1cc(C(=O)N2CCC3(CC2)CC(=O)c2c(cnn2C(C)C)C3)cc(-c2ccc(C(=O)O)cc2)n1 | – | human, fasting serum | 100 mg once daily, day 13, adjusted geometric mean | relative to: placebo | total cholesterol change from baseline | -7.6%
Cc1c(C(=O)O)ccc2c3n(nc12)[C@@H]1[C@H](C3)N(CC2CC2)[C@@]2(C(=O)Nc3cc(Cl)ccc32)[C@H]1c1cccc(Cl)c1F | – | human glioblastoma, tumor tissue | – | – | total tumor concentration | 130 nmol/L
N#CCNC(=O)c1ccc(-c2ccnc(Nc3ccc(N4CCOCC4)cc3)n2)cc1 | population PK model, NONMEM | human, plasma | oral, typical value, final model | – | total V/F | 383 L
Nc1nc2cc(-c3ccc4ncc(C(=O)N5CCOCC5)n4c3)ccc2o1 | – | human, plasma | oral, dose not given, 1 week | relative to: 900 mg once daily over 150 mg | total weekly exposure ratio | ~4
CO/N=C(\C(=O)N[C@@H]1C(=O)N2C(C(=O)O)=C(COC(C)=O)CS[C@H]12)c1csc(N)n1 | LC-MS/MS | human patients, plasma | dose not given, therapeutic drug monitoring, median | – | total plasma concentration | 15 mg/L
